# Measurements of several laboratories.
# Parts stem from different laboratories: compare values within a part only. Substitutions count along the parent as printed.
# Chain of UniProt P16591 (whole entry, looked up): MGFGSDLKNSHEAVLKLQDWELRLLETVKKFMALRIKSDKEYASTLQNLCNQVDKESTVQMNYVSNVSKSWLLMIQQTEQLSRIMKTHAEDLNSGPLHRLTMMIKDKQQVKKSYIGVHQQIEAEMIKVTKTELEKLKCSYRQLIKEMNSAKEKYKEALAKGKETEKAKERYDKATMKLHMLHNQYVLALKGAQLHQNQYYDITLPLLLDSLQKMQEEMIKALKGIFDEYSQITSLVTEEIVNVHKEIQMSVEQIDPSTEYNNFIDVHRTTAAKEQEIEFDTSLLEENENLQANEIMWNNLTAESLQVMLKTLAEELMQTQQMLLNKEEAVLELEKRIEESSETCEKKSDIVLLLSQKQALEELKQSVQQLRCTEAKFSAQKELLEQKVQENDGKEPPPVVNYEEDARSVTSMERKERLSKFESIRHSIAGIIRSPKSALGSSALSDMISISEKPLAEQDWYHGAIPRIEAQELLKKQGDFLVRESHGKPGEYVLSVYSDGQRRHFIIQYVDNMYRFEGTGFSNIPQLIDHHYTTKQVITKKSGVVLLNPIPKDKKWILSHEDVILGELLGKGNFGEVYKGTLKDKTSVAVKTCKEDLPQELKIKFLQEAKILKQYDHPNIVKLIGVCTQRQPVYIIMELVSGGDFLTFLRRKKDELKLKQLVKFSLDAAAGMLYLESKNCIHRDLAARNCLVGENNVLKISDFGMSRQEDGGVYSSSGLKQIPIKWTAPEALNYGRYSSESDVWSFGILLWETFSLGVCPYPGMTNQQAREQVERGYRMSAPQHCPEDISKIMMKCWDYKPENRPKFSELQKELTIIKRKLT
# Chain of UniProt P21709 (whole entry, looked up): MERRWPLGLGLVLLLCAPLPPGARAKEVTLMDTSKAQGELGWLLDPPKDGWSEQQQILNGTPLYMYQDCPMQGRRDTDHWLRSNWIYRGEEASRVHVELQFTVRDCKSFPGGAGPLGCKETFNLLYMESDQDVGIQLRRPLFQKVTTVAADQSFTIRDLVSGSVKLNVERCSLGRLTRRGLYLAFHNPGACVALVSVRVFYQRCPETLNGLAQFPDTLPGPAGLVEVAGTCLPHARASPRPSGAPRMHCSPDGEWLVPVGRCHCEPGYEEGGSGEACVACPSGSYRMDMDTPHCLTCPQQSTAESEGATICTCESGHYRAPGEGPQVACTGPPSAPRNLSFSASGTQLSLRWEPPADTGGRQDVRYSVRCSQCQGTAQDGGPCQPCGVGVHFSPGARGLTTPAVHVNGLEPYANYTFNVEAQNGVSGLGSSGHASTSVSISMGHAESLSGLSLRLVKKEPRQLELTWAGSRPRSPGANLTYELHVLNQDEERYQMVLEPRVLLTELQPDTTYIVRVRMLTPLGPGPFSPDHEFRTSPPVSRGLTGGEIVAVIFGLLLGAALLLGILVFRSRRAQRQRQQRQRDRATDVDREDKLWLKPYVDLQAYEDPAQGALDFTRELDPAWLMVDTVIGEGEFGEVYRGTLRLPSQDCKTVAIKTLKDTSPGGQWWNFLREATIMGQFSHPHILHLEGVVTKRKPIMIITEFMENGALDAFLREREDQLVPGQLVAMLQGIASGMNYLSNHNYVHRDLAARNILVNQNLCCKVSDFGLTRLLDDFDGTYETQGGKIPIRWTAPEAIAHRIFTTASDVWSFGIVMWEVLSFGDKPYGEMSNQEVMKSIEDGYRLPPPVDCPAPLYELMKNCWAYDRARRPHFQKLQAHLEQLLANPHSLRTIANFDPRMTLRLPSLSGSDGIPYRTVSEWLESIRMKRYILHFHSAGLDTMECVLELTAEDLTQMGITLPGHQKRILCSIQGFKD
# Chain of UniProt Q14164 (whole entry, looked up): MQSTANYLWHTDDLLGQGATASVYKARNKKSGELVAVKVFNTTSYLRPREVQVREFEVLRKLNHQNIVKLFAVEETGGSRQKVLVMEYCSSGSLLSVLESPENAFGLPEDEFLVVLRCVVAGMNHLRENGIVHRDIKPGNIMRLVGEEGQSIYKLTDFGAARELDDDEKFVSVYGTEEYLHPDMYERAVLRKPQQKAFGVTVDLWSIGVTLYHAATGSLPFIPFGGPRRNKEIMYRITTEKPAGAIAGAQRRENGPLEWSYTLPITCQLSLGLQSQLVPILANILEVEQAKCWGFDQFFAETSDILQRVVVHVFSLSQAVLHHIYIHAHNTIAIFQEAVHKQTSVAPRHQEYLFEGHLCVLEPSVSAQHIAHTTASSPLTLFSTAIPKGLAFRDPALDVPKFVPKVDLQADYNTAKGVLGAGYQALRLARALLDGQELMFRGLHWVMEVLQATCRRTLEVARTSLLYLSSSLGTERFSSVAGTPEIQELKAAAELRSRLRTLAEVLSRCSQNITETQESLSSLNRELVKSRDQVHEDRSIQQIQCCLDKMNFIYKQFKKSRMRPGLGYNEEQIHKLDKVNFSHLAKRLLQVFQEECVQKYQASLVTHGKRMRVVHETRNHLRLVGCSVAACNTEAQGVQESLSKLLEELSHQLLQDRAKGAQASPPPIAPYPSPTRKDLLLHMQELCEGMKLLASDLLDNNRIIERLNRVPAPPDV

# Series 1
# Target: ABI1, truncated, D143A, DHFR fusion (Arabidopsis thaliana)
# Technique: DHFR PCA, deep sequencing
# Sample: yeast
# Setting: methotrexate growth selection, single substitutions
# Together with: (+)-ABA 58 µM
# Baseline: wild-type fitted maximum
# Reading: higher = stronger binding
# Starting sequence: PYL1, truncated, DHFR fusion (Arabidopsis thaliana); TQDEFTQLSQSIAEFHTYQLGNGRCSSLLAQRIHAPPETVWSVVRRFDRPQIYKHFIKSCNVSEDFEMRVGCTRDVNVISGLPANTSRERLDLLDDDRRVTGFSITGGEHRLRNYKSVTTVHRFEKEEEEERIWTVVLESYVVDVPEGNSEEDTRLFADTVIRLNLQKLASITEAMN
Substitution,relative binding score [%]
S171I,75.3
F47Q,7.13
G108W,-1.53
H55P,94.9
T73Y,90.4
P146K,-0.218
V76T,48.5
E131W,70.9

# Series 2
# Target: Prothrombin, mature alpha-thrombin (F2, Homo sapiens, UniProt P00734)
# Technique: aptamer microarray, sandwich
# Molecule type: DNA with 2'F-ANA
# Sample: in vitro
# Concentration: 200 nM
# Setting: whole 15-mer aptamer, many near background
# Together with: Cy3 exosite-II aptamer, 400 nM
# Reading: higher = stronger binding
# Strand: GGTTGGTGTGGTTGG
Modification,mean fluorescence intensity [a.u.]
2'F-ANA at 1 2 3 6 8 12,503
2'F-ANA at 3 4 5 6 7 9 11,147
2'F-ANA at 1 2 3 4 7 8 11 12 14 15,88.8
2'F-ANA at 2 3 4 6 8 9 10 11 12 14 15,134
2'F-ANA at 3 4 7 8 11 13 14 15,355
2'F-ANA at 1 4 5 9 10 12 13 15,60.8
2'F-ANA at 1 2 9 10 11 12 13 14,50.1
2'F-ANA at 6 9 10 11 12 14 15,102

# Series 3
# Compound: CN(C)C(=O)Cn1cc(-c2nc([C@@](C)(c3ccc(-c4cnc(N)nc4)cc3)C3CC3)no2)cn1
# Read-out: cell-free assay
# Technique: competition with immobilised ligand
# Concentration: 1 µM
target,remaining binding
"Ephrin type-A receptor 1 (EPHA1, Homo sapiens, UniProt P21709)",97%
"Inhibitor of nuclear factor kappa-B kinase subunit epsilon (IKBKE, Homo sapiens, UniProt Q14164)",86%
"Tyrosine-protein kinase Fer (FER, Homo sapiens, UniProt P16591)",94%

# Other studies, line by line
SMILES,sample,measurement,result
CCC[C@H]1NC(=O)CSC[C@@H](C(=O)OCC)N(C)C(=O)[C@H](CC(C)C)NC(=O)[C@H](C)N(C)C(=O)[C@@H](CC(C)C)NC(=O)[C@H](C)N(C)C(=O)[C@H]2CCCN2C(=O)[C@H](CC(C)C)NC(=O)CN(CCC)C1=O,hydrocarbon/water,logD,1.05

# For quick reference, copied from above (series 2):
Modification,mean fluorescence intensity [a.u.]
2'F-ANA at 3 4 7 8 11 13 14 15,355
2'F-ANA at 1 4 5 9 10 12 13 15,60.8
2'F-ANA at 1 2 9 10 11 12 13 14,50.1
